Assay results gathered from unrelated publications.
Each numbered part is a random draw from the data of one study; scales do not carry over between parts. Positions count from the first letter of the parent shown.

Series 1
Target: CCNE1, cyclin fold, Cln2 fusion (human)
Method: yeast growth competition, sequencing
Matrix: yeast
Setting: strong parent motif
Reference: not given
Reading: higher = stronger binding
Measurement: normalised enrichment score
Starting sequence: CDC25A docking peptide (human); PPHRRRLLFACSP
C11N: 1.14
P2R: 1.63
L7S: 0.223
F9D: -0.0138
S12Q: 0.357
R5K: 1.12
P1Y: 1.25
H3Y: 1.98
R4T: 0.637
P1N: 0.589
R6T: 0.881
P13M: 1.44
L8W: 1.31
R6P: 0.449
R4D: 0.683
R5S: 0.659

Series 2
Target: PABPC1L2, full length, GST fusion (mouse, UniProt A0ABA7IW68)
Method: RNAcompete
Form: RNA
Matrix: in vitro
Concentration: 20 nM
Setting: 7-mer, probes averaged, single round
Reference: mean of 7-mers
Reading: higher = stronger binding
Measurement: 7-mer Z-score
Residues (chain): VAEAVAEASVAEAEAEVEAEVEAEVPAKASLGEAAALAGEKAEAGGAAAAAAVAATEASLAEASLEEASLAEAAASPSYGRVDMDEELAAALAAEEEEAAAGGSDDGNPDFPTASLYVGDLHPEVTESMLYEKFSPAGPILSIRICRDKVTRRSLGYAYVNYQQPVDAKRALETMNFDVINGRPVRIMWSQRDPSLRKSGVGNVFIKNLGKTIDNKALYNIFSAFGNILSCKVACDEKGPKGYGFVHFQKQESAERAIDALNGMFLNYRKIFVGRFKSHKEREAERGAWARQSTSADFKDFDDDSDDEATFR
GGCGACC: 0.0841
CGGAUUA: 0.0877
GAGGAGU: -0.0228
UUGCGAU: -0.264
CUUGCAA: -0.235
CGUCUGC: -0.429
AAAUGGC: 1.3
AACGGCG: 0.224
GACGUAA: 0.0642
ACCCGGC: -0.302
UUUUCUC: -0.36
CCUCGUG: -0.309
CUGAUCA: -0.121
UCGAGUA: -0.17
UUUAUAC: -0.202
GAUAAGG: -0.0337

Series 3
Target: Histone acetyltransferase KAT6A, winged helix 1, GST fusion (KAT6A, Homo sapiens, UniProt Q92794, residues 1-85)
Method: protein binding microarray
Form: double-stranded DNA, one strand shown
Matrix: in vitro
Concentration: not given
Setting: 8-mer, flanks averaged, mean of 2 arrays, mostly near background
Reference: not given
Reading: higher = stronger binding
Measurement: E-score
Target sequence (chain): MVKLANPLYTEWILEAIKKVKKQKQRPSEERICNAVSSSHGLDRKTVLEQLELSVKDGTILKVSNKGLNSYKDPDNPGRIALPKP
AGCCGTGG: 0.281
CCGGCTTA: 0.196
CATTCTCC: -0.108
ATTACGTA: -0.00494
CTATCCAA: -0.0874
AAGACCCC: -0.164
CCGTCCGA: 0.353
CAGTCCGA: 0.00286
AACAACAA: -0.12
AACTTCCC: -0.117
CCAGTCGA: -0.205
AGCGTTGG: -0.104
CTACTGCA: -0.168
ACGCAACC: 0.133
CACCTACG: 0.19
CCTTGGTA: -0.0988

Series 4
Target: UBE2H UBC core domain (UniProt P62256)
Sequence of UniProt P62256 (whole entry, looked up): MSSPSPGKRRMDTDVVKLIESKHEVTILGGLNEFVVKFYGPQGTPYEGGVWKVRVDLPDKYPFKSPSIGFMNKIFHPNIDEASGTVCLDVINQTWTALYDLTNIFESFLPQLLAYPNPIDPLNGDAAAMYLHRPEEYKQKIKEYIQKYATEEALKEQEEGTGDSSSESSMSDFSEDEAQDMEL
Method: yeast two-hybrid
Matrix: yeast
Setting: mostly zero background
Reference: not given
Reading: higher = stronger interaction
Measurement: lacZ reporter activity
B1: SH3RF2 RING domain (UniProt Q8TEC5); chain DDLTLLDLLECPVCFEKLDVTAKVLPCQHTFCKPCLQRVFKAHKELRCPECRTPVFSNIEAL
B2: RNF111 RING domain (UniProt Q6ZNA4); chain EGTEEDTEEKCTICLSILEEGEDVRRLPCMHLFHQVCVDQWLITNKKCPICRVDIEAQLPSE
B3: RNF208 RING domain (UniProt Q9H0X6); chain SSAAAGEPLECPTCGHSYNVTQRRPRVLSCLHSVCEQCLQILYESCPKYKFISCPTCRRETVLFTDYG
B4: TRAF5 RING domain (UniProt O00463); chain FVERLEERYKCAFCHSVLHNPHQTGCGHRFCQHCILSLRELNTVPICPVDKEVIKSQEVFK
B1 (SH3RF2 RING domain): 0
B2 (RNF111 RING domain): 0
B3 (RNF208 RING domain): 0
PAELEVQASECVVCLEREAQMIFLNCGHVCCCQQCCQPLRTCPLCRQDIAQRLRIY (LRSAM1 RING domain (UniProt Q6UWE0)): 0
B4 (TRAF5 RING domain): 0

Series 5
Target: RING finger protein unkempt homolog, zinc fingers 1-6, GST-SBP tag (UNK, Homo sapiens, UniProt Q9C0B0, residues 30-357)
Method: RNA Bind-n-Seq
Form: RNA
Matrix: in vitro
Concentration: not given
Setting: RNA with constant flanks, human and mouse sites, ends assumed
Reference: input RNA pool
Reading: higher = stronger binding
Measurement: bound/input enrichment
Shared flanks, not repeated: GGGAGUUCUACAGUCCGACGAUC … CAACAGAGGAUUGAGCAUCA
Target sequence (chain): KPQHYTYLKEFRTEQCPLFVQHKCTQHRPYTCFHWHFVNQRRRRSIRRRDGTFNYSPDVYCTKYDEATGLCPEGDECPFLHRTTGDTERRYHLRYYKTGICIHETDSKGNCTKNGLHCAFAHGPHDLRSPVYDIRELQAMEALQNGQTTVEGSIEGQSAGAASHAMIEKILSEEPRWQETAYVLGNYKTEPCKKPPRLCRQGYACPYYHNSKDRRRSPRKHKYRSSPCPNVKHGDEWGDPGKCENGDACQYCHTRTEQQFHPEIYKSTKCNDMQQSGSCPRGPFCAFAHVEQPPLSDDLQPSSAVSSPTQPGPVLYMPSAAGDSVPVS
CAAUAUAAGGAUGAUAAUUUUGGAGAAGGAAAUGAUGGUGGAAUAUUAGAUGACAAACUUAUUAGUAAUAAUGAUGGCGGUAUCUUUGAUGAUCCCCCUGCCCUCUCUGAGGCAGGGGUG: 208 ratio
CGCCUGAUGGAAAGCCACGGCUUUGAGGAGUACAUGAAAGAGCUAGGAGUAGGACUGGCUCUUAGGAAGAUGGCUGCCAUGGCCAAGCCAGACUGUAUCAUUACGUGUGAUGGCAACAAC: 0.208 ratio
UCUGAUGGGGACCAUCAGGUUCCAACUACUGCAGGAAACAAAGCAGCUCUUUUAGAUCAAAUUAGAGAGGGUGCUCAGCUAAAAAAAGUGGAGCAGAACAGUCGGCCAGUGUCCUGCUCU: 1.92 ratio
UAUGAGAAGGAUGCACUGAGCAUAAGGAAGGUCGGAGAGGAGGAGUGUGUGGCUCUAGGCAGUUUCUUUUUCUGGAAGUGUUUGCAUGGAGAAAGCUCCACUGAAGAGAUGUGCCACAGC: 0.242 ratio
GCCCACAGGUGCGGCCUCCGCCCGGCCGUGGGCUACGAGCUGAACCCCUGGCUGGUGGCGCUGGCGCGGCUGCACGCCUGGAGGGCCGGCUGUGCCGGCAGCGUCUGCUAUCGCCGCAAG: 0.0734 ratio
ACUUGCUGUCUCUUAGAGGCUGAGCUUCAUUUCUAUGAGCAAAGAGCUCAUUUAGCAAUGUAGUUAUUUCAGUAUUUAUUUCUAUUAUGGAAUCCCUGGGGUUCAGAAUGUAACUUUGUA: 7.33 ratio
GCCUUAUAUAGCAACAUACUUGGUGAGGAAAACACCUACCUGUGGCGCACAUCACUGUAUUUAGCUUCUUCUGCCAGUGCUGAAUUCUUCGCUGACAUUGCCCUGGCUCCUAUGGAAGCU: 0.3 ratio
GUGACUGGUGUUAAGAUUUCCCCUCAGCAAAGAAGUGCAGUAGUCACCAUAAUUCCAUCUGUGGUGAGUGCCAGUCAGAUUGUGGAGCUGGUCCCAGACCUCAGUUUAGACAUGGGAACU: 0.216 ratio
ACAGGUCAAGUGGUAGCCAUGAAAAAAAUCAGACUAGAAAGUGAAGAGGAAGGGGUUCCUAGUACUGCAAUUCGGGAAAUUUCUCUAUUAAAGGAACUUCGUCAUCCAAAUAUAGUCAGU: 0.241 ratio
CGGCGGCUGGGUGAGGGCUGCUGGUGUCGCGUUUGAGGAGAACUGCGAGUGUGUUUGGCAUAUCCCCGUCAGGAUCCCAGCUACGAUGAGUGCUGCCCGGGAGUCUCACCCGCACGGGGU: 0.119 ratio
GGCAUGCAUGUAUUACCAUGGAGGUAGCUCAUUGAUCUUUUAAGGUUCCUCAUAUAAUUUAAUGUCUUUAUCAAGAUUUUAAGAGAGCUCUUUACAUUCCUACUGGUUUGCUUGAGCUAU: 0.137 ratio

Series 6
Target: Hepatocyte nuclear factor 3-alpha (Foxa1, Mus musculus, UniProt P35582, residues 1-468, full length assumed)
Method: EMSA with sequencing
Form: double-stranded DNA, one strand shown
Matrix: in vitro
Concentration: 10 and 20 nM
Setting: whole designed probe, mean of two concentrations, ends assumed
Reference: negative control set to 0
Reading: higher = stronger binding
Measurement: normalised bound fraction
Shared flanks, not repeated: GTGAGCGGTGCCCATTGATGGGGAAC … TTTCACTGGGATCGTGGGGAC
Target sequence (chain): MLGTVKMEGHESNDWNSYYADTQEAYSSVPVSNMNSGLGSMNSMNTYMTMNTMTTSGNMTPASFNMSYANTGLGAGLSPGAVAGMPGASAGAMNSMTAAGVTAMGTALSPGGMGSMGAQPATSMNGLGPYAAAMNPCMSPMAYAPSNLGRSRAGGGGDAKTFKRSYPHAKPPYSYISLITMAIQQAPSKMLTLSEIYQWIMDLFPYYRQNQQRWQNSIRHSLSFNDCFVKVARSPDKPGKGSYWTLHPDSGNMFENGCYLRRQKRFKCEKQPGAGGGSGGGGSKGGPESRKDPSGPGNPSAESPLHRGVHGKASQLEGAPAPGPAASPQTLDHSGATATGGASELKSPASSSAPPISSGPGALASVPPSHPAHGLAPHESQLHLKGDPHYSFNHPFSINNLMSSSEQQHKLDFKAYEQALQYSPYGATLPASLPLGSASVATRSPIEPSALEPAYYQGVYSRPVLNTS
AATGGGCTCCTGGGAACAGAAGCAACAGCTGCGTGGAGGGTGAGGACAAGCTGACATTTAGAAATATTCTGGTCAAGAGTTCCAATTGGTGTTTGTTTGCTGAGGGCGCTGGTGTGAAGCCCGGCTGAGTCATGAGGTTGGACAGACAGTCCAGGAGCGGCTGAGTAAGGCAAGGTGGGGAAGGGCACATGCT: 0.264 ratio
GAAAGCTGCTTTTTCCAACAACCACCCGAATCAATTTTGCCCAGATTGGGGTGTCTGCCTTCGCCCAAGTGGAAACAATGCTGGTCTTTCCATATTTACATTGAATTTGGGTTCTTTCCCCTTTTTTGAAAGGCAAAATCAAGCGGTGGCTTACACTTTTCAGCAGCTTTAAAAATAAATAATGGTGATGGAC: 0.146 ratio
ATCTTCCCCCTTTTTTTTTCCCCACCAGCTCACCTTCCCGGGTTATTTGCAGATAGGAAAATAAATAAAGCCGGCATTCGTTAACCCTCTTCTGGCGCAAACTGCTGTTTGCTCTGGATGAATCATGGTCCTTTGGCGACGCCAGGCTCCGGGAGAGCAAAGCACCGTGTCAGGGCCATGATCCGGGGTGGCC: 0.321 ratio
CCCTCTTCTAACTCAGAAGGGTTGAAGCAGATAATGAAACCAGATACCTATGGGAATTAGTCAGCATTTCTTTATGTGAGTAGTTGTACTTGAGTAAATATGCAATCCTGTTTACCAATCTATTCTGTTTTACTCAGTTATTTGAACTCTTTTTTCTCTTTAAAAACAGCAAAAGGAATGAAGGAAGGAAAGC: 0.259 ratio
TATGTGGGAACTAATTGAGGACCAAGATTACAATGCGTACAAATCATAAATCAATTAGTTCATATTGATTTACAAACAAGGAAGAAAAAGTATTAGATTACATTGATACTGTCCATGTAAACTTTTTTCAATTCAAAAGAAACACATAGTTCTGTCATAAAGTAGATTTTCTATCCCTTTTATTTTCTGAGCT: 0.133 ratio
GTTTTTTTTTTTAAGTTAGTAGTACCTTCTGTATCCTTCAAACATCTAAAGAGAAAAAGCTAATAGATTGTGCAATATTTCCAGAAGGCAAAGTAATCTTGCAACAAAAAAGTAAAGTAAAAGATGATCTTATGTTTGAAATGTTTCTGAGCTTTGTTTGATGGTTTCTTGATTGTGTGTGTGAGTGTGTGTG: 0.021 ratio

Series 7
Target: Protein C-ets-1 (ETS1, Homo sapiens, UniProt P14921, residues 1-441, full length assumed)
Method: protein-binding microarray
Form: double-stranded DNA, one strand shown
Matrix: in vitro
Concentration: not given
Setting: k-mer, scored over probes, only values ≥0.25
Reading: higher = stronger binding
Measurement: E-score
Residues (chain): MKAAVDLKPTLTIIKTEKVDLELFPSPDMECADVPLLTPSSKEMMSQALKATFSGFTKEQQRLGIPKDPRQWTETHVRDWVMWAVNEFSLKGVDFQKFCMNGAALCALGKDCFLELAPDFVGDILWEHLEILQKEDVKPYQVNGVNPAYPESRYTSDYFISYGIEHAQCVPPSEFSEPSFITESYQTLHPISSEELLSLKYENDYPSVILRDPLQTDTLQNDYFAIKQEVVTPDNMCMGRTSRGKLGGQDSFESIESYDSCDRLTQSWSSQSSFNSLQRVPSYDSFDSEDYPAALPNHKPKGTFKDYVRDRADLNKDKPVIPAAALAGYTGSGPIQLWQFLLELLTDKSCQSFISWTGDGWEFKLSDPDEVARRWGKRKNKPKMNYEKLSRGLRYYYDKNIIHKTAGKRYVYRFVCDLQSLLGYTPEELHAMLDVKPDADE
GAAGTAAC: 0.271
CAACGGAA: 0.409
AGGATATA: 0.347
AGTGGAAG: 0.265
ACCCCGGT: 0.254
CCATCCGA: 0.288
CGGACACG: 0.348
GACAGGAC: 0.269
TCACCGGA: 0.448
CACCATTA: 0.271
TACTTCCA: 0.346

A few entries again (series 1):
R6T: 0.881
P1Y: 1.25
P2R: 1.63
R5K: 1.12
R5S: 0.659
L7S: 0.223
L8W: 1.31
R4D: 0.683
F9D: -0.0138
P13M: 1.44
H3Y: 1.98
S12Q: 0.357
